Experimental data from different studies.
Every numbered part comes from another study and shows a few of its results, in no order. Values joined by “and” are separate records of one study, mostly repeats; a detail may differ.

Sample 1
Target: 5-hydroxytryptamine receptor 1B (HTR1B, Homo sapiens, UniProt P28222)
Sequence of UniProt P28222 (whole entry, looked up): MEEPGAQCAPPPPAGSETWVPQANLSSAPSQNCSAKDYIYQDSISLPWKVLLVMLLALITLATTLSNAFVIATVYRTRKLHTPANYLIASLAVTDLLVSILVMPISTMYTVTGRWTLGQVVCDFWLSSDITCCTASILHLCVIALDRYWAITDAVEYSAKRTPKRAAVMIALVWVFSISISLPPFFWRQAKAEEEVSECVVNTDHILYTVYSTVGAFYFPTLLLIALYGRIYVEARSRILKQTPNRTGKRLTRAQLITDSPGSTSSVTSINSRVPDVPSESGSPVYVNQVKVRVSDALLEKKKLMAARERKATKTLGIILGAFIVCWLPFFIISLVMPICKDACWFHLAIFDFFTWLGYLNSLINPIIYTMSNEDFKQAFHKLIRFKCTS
Effect on: binding
Technique: radioligand binding
Tested at: 10 µM
SMILES | inhibition [%]
CC1=C(C#N)C(c2ccc3[nH]nc(C)c3c2)C(C#N)=C(C)N1 | 0.48
Cc1ccccc1Oc1cc(-n2c(=O)cc(C(F)(F)F)[nH]c2=O)c2ccccc2c1Cl | 4.02
CC(=O)Nc1nc(CN2CCC[C@H](Cc3cc(C)nc(C)c3)C2)cs1 | 4.01
Nc1nc(NCc2ccccc2)nc(-c2ccccc2CO)n1 | 7.41
CC(=O)Nc1c(F)cc(C(=O)N[C@H]2CC[C@H](O)CC2)cc1O[C@@H](C)c1ccccc1 | 11.6
Cc1cc(C)c(-n2ccn3nc(-c4cccnc4)cc23)cc1NC(=O)c1cc(C#N)cc(S(F)(F)(F)(F)F)c1 | 14.4
O=C(Nc1cnc(Oc2ccc(F)cc2)nc1)N1CCc2ncccc2[C@@H]1c1ccc(F)cc1 | 36.4
CN1C(=O)[C@@H](N2CCc3c(nn(Cc4ccccc4)c3Br)C2=O)COc2ccccc21 | -3.35
CNC(=O)Nc1ccc2c(c1)CC[C@]21OC(=O)N(CC(=O)N(Cc2ccc(F)cc2)[C@@H](C)C(F)(F)F)C1=O | 9.82
COc1nc2ccc([C@@](O)(c3ccccc3)C3CCN(C(C)=O)CC3)cc2c(Cl)c1Cc1ccc(-n2cccn2)cc1 | 8.87
CCC(=NO)C(C)=Cc1ccc(F)c(C)c1 | -1.04
CC1CCN(c2ccnc(NCc3cn(C)cn3)n2)CC1 | 24.4
CS(=O)(=O)N1CCCC(NC(=O)[C@H](CCC2CCCCC2)NC(=O)c2ccc(CNC(=O)c3cnc4ccccn34)cc2)C1 (stereo partly drawn) | 10.9
N#CC1(c2ccccn2)CCN(Cc2cc(C(=O)N3CCCC3)c(=O)n3ccccc23)CC1 | 13
O=C(NNS(=O)(=O)c1ccccc1)c1cc(-c2ccnnc2)ccc1F | 11
Cc1noc([C@H]2C[C@@H](c3ccc(C(F)(F)F)cc3)CN(C(=O)N3CCS(=O)(=O)C3)C2)n1 | 4.16
c1ccc(C2CCN(c3cnc4c(N5CCOCC5)nccn34)CC2)cc1 | 8.68
O[C@]1(C(F)(F)F)CCCC[C@H]1Nc1ccc(F)cc1 | -3.12
COc1cc(C(=O)O)ncc1C#Cc1ccccc1NS(=O)(=O)c1cccc2c(N(C)C)ccnc12 | 10.6
COc1cc(N[C@@H]2CCCC[C@]2(O)C(F)(F)F)ccc1F | -10.4
O=C1c2ccc(Nc3ccc(F)cc3F)cc2CCc2ccc(OC[C@H](O)CO)cc21 | 15.2
O=C(Nc1ccc(-n2nc(-c3cccnc3)cc2C(F)(F)F)cn1)c1ccc(-c2ccccc2)c(F)c1 | -0.85
CN1CCN(C(=O)C(C)(C)c2ccc(C(=O)Nc3cn4cc(-c5cc(C(C)(C)C)cc(C(C)(C)C)c5)ccc4n3)cc2)CC1 | 66.9
O=C(Nc1ccc(Oc2ccc(F)cc2)cc1)N1CCc2ncccc2[C@H]1c1ccc(F)cc1 | 18.8
O=C(Nc1cccnn1)N1CC(CC=Cc2cncc(Oc3ccc(C(F)(F)F)cn3)n2)C1 | 4.8

Sample 2
Target: Myosin light chain kinase, smooth muscle (MYLK, Homo sapiens, UniProt Q15746)
Sequence of UniProt Q15746 (whole entry, looked up): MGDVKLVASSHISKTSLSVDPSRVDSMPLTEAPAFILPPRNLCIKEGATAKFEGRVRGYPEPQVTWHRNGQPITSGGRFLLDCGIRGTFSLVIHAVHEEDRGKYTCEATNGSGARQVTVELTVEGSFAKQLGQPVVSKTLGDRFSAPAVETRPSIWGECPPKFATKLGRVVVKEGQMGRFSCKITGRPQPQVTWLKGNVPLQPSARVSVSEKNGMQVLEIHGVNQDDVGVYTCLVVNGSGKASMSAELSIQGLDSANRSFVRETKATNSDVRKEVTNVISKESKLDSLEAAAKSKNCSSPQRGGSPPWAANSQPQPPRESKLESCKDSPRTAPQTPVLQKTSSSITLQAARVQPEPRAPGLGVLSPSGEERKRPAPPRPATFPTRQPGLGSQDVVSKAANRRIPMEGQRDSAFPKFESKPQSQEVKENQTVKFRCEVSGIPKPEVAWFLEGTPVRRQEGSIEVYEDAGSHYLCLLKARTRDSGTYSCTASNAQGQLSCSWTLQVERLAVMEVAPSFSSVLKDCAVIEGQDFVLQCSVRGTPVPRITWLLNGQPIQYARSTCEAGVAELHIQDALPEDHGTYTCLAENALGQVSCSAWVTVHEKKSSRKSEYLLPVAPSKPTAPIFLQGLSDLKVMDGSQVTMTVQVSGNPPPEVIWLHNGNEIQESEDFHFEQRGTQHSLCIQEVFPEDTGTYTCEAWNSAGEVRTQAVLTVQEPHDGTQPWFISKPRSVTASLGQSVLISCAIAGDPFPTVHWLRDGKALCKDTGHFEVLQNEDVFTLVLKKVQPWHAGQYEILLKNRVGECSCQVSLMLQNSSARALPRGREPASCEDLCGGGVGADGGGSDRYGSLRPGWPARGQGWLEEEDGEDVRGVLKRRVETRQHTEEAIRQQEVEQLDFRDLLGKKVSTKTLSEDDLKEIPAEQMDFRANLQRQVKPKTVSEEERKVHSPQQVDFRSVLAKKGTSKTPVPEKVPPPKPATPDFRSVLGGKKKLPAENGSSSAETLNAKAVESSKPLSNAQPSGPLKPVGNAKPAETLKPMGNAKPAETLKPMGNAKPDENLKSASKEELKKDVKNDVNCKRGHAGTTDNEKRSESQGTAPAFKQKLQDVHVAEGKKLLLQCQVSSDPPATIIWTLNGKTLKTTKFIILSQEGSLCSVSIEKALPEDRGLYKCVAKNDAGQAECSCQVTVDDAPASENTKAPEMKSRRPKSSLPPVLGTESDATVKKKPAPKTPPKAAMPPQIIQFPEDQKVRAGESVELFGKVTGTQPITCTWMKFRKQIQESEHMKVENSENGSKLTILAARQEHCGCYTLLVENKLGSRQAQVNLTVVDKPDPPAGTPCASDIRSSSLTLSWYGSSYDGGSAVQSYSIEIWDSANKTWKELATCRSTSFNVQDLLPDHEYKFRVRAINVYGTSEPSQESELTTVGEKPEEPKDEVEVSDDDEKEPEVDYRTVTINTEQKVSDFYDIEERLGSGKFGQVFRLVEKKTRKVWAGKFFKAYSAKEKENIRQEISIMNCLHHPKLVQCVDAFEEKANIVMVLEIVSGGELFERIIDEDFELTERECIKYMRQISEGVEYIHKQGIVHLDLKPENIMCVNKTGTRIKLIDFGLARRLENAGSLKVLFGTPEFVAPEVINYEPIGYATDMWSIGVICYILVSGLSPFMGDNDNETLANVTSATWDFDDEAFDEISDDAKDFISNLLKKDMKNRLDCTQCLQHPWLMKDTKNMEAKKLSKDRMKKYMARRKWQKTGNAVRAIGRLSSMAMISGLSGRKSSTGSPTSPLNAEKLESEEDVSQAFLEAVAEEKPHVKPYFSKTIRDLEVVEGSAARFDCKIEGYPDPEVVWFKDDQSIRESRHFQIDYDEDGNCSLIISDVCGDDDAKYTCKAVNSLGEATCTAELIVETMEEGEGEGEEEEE
Effect on: enzyme activity
Action: inhibitor
Tested at: 0.5 µM
Reference: control
SMILES | remaining activity
Cn1cc(/C=C2\C(=O)Nc3ccc(S(N)(=O)=O)cc32)c2ccccc21 | 95%
CCOc1cc2ncnc(Nc3cccc(Br)c3)c2cc1OCC | 89.4%
CC(=O)O/N=C1/C(c2c(O)[nH]c3cc(Br)ccc23)=Nc2ccccc21 | 74.2%
Cc1nc(Nc2ncc(C(=O)Nc3c(C)cccc3Cl)s2)cc(N2CCN(CCO)CC2)n1 | 92.3%
COc1cc2ncnc(Nc3ccc(OCc4ccccc4)cc3)c2cc1OC | 95%
COc1cc2ncc(-c3ccccc3)nc2cc1OC | 97.4%
COc1ccc(Cl)cc1NC(=O)Nc1cc(C)nc2ccccc12 | 95.7%
COc1cc2ncnc(N3CCN(C(=O)Nc4ccc(Oc5ccccc5)cc4)CC3)c2cc1OC | 101%
Nc1[nH]nc2nnc(-c3c(-c4ccccc4)nn4ccccc34)cc12 | 98.3%
CCC(=O)Nc1ccc2ncnc(Nc3cccc(Br)c3)c2c1 | 95.5%
CN(C)CCCn1cc(C2=C(c3c[nH]c4ccccc34)C(=O)NC2=O)c2ccccc21 | 23.2%
CC(C)[C@H](CO)Nc1nc(Nc2cccc(Cl)c2)c2ncn(C(C)C)c2n1 | 95.1%
COc1ccc(-c2cnc3c(-c4ccsc4)cnn3c2)cc1 | 102%
O=C(Nc1ccc(Cl)cc1)c1ccccc1NCc1ccncc1 | 105%
CS(=O)(=O)CCNCc1ccc(-c2ccc3ncnc(Nc4ccc(OCc5cccc(F)c5)c(Cl)c4)c3c2)o1 | 90.7%
O=c1cc(N2CCOCC2)oc2c1ccc1ccccc12 | 92.3%
Cn1cnc2cc3c(Nc4cccc(Br)c4)ncnc3cc21 | 83.3%
O=C1NC(=O)/C(=C/c2ccc3nccnc3c2)S1 | 97.1%
CCN1/C(=C/C(C)=O)Sc2ccc(OC)cc21 | 93.7%
CC(C)c1nn(-c2c(Cl)cccc2Cl)c2nc(Cc3ccc(OCCO)cc3)[nH]c(=O)c12 | 98.3%

Sample 3
Target: Eukaryotic initiation factor 4A-III (Homo sapiens, UniProt P38919)
Sequence of UniProt P38919 (whole entry, looked up): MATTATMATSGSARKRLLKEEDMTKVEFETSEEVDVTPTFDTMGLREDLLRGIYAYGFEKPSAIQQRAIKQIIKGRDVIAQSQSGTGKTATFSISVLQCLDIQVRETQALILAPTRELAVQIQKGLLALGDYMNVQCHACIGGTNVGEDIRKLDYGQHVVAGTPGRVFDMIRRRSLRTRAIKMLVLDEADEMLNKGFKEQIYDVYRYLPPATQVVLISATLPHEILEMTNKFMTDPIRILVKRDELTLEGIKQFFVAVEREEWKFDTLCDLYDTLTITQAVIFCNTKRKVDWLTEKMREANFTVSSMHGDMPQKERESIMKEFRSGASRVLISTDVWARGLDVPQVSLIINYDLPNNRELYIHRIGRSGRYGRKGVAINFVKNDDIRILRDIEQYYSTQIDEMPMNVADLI
Effect on: RNA clamping
Technique: fluorescence polarization
Tested at: concentration not given
Notes: mean of two replicates
Added: FAM-labelled poly r(AG)8 RNA
Compound | fluorescence polarization change
COCCOCOC(=C(F)F)c1ccc([C@@H]2[C@@H](C(=O)N(C)OC)[C@@H](O)[C@@]3(O)c4c(OC)cc(OC)cc4O[C@@]23c2ccc(OC)cc2)cc1 | -2.9 mP
COC(=O)[C@@H]1[C@@H](c2ccccc2)[C@]2(c3ccc(OC)cc3)Oc3cc(OC)cc(OC)c3[C@@]1(O)C2(O)O | 2.7 mP
C#CCOc1ccc(-c2nc3c(c(=O)n2CC#C)[C@@H](c2ccccc2)[C@]2(c4ccc(OC)cc4)Oc4cc(OC)cc(OC)c4[C@]32O)cc1 | 3.6 mP
COc1ccc([C@@]23Oc4cc(OC)cc(OC)c4[C@]2(O)C2=C(C(=O)N4CCC[C@@]4(C)N2)[C@H]3c2ccccc2)cc1 | 5.2 mP
CCCCN[C@@]12C(=O)[C@H](C(=O)OC)[C@@H](c3ccccc3)[C@]1(c1ccc(OC)cc1)Oc1cc(OC)cc(OC)c12 | 10.5 mP
COc1ccc([C@@]23Oc4cc(OC)cc(OC)c4[C@]2(O)[C@H](O)[C@H](C(=O)c2ccc(C)o2)[C@H]3c2ccccc2)cc1 | 19 mP
COC(=O)[C@@H]1[C@@H](O)[C@@]2(O)c3c(OC)cc(OS(=O)(=O)c4ccc(C)cc4)cc3O[C@@]2(c2ccc(Br)cc2)[C@H]1c1ccccc1 | 3.3 mP
COc1cc(OC)c2c(c1)O[C@@]1(c3ccc(Br)cc3)[C@H](c3ccccc3)C3=C(N[C@H]4CCCN4C3=O)[C@@]21O | 29.1 mP
CCOC(=O)COc1cc(OC)c2c(c1)O[C@@]1(c3ccc(OC)cc3)[C@H](c3ccccc3)c3c(nc(-c4ccccc4)[nH]c3=O)[C@@]21OCC(=O)OCC | -1.1 mP
COC(=O)[C@@H]1[C@@H](c2ccccc2)[C@]2(c3ccc(OC)cc3)Oc3cc(OC)cc(OC)c3[C@@]23N2CCCC2=N[C@@]13O | 9.2 mP
COc1ccc([C@@]23Oc4cc(OC)cc(OC)c4[C@]2(O)C2=NNC(=O)C2=C3c2ccccc2)cc1 | -0.2 mP
C#CCCC1(CCNC(=O)CCCn2c(-c3ccccc3)nc3c(c2=O)[C@@H](c2ccccc2)[C@]2(c4ccc(OC)cc4)Oc4cc(OC)cc(OC)c4[C@]32O)N=N1 | 4.4 mP
COc1ccc([C@@]23Oc4cc(OC)cc(OC)c4[C@]2(O)c2nc(C4CC4)[nH]c(=O)c2[C@H]3c2ccccc2)cc1 | 38.7 mP and 29.7 mP and 35 mP
COc1ccc([C@@]23Oc4cc(OC)cc(OC)c4[C@]2(O)[C@H](O)[C@H](C(=O)c2ccco2)[C@H]3c2ccc(O)cc2)cc1 | 8.4 mP
COC(=O)[C@@H]1[C@@H](c2ccccc2)[C@]2(c3ccc(OC)cc3)Oc3cc(OC)cc(OC)c3[C@@]23NC(N2CCOCC2)=N[C@@]13O | 40.6 mP
COC(=O)[C@@H]1[C@@H](c2ccccc2)[C@]2(c3ccc(OC)cc3)Oc3cc(OC)cc(OC)c3[C@@]23NC(C2CCCCC2)=N[C@@]13O | 40.3 mP

Sample 4
Target: Calcium/calmodulin-dependent protein kinase type II subunit alpha (CAMK2A, Homo sapiens, UniProt Q9UQM7)
Sequence of UniProt Q9UQM7 (whole entry, looked up): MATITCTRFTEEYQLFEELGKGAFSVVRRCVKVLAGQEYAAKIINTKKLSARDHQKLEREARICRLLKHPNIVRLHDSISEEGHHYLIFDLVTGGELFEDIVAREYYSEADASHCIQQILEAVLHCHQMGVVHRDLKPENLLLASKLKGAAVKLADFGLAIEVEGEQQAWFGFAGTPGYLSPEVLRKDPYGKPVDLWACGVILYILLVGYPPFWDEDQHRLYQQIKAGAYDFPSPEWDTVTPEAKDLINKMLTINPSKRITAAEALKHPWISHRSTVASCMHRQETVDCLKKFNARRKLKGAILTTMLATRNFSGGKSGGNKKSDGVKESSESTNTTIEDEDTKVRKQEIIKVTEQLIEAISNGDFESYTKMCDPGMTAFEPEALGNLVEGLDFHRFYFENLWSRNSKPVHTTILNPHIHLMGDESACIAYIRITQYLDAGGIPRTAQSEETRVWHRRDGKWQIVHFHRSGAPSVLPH
Effect on: enzyme activity
Action: inhibitor
Tested at: 10 µM
Structure (SMILES) | inhibition
C/C(=C\c1csc(C)n1)[C@@H]1C[C@@H]2O[C@]2(C)CCC[C@H](C)[C@H](O)[C@@H](C)C(=O)C(C)(C)[C@@H](O)CC(=O)N1 | -9%
CC(=O)OCC(=O)[C@@]1(O)CC[C@H]2[C@@H]3CCC4=CC(=O)CC[C@]4(C)[C@H]3C(=O)C[C@@]21C | 21%
COc1ccc(/C=C/C(=O)c2c(O)cc(O[C@@H]3O[C@H](CO[C@@H]4O[C@@H](C)[C@H](O)[C@@H](O)[C@H]4O)[C@@H](O)[C@H](O)[C@H]3O)cc2OC)cc1O | -14%
NC(=O)[C@@H]1CSSCCC(=O)N[C@@H](CCCCN=C(N)N)C(=O)NCC(=O)N[C@@H](CC(=O)O)C(=O)N[C@@H](Cc2c[nH]c3ccccc23)C(=O)N2CCC[C@H]2C(=O)N1 | -2%
CCCC1O[C@@H]2C[C@H]3[C@@H]4CCC5=CC(=O)C=C[C@]5(C)[C@H]4[C@@H](O)C[C@]3(C)[C@]2(C(=O)CO)O1 (stereo partly drawn) | -7%
CC(=O)NCCCC(=O)O | 22%
C[C@@H]1CC[C@]2(C(=O)O)CC[C@]3(C)C(=CC[C@@H]4[C@@]5(C)CC[C@H](O)[C@@](C)(CO)[C@@H]5CC[C@]43C)[C@@H]2[C@]1(C)O | -11%
COc1ccc2c(c1OC)CN(C)CCc1cc3c(cc1C(=O)C2)OCO3 | -6%
CC(C)=CCC[C@H](C)[C@@H]1CC[C@]2(C)C3=C(CC[C@@]12C)[C@@]1(C)CC[C@H](O)C(C)(C)[C@@H]1CC3 | 47%
CC(C)[C@H](N)C(=O)OCC(CO)OCn1cnc2c(=O)[nH]c(N)nc21 (stereo partly drawn) | -16%
O=C(CC(=O)c1ccccc1)c1ccccc1 | -7%
COC(=O)CC[C@@H](C)[C@H]1CC[C@H]2[C@@H]3[C@H](O)C[C@@H]4C[C@H](O)CC[C@]4(C)[C@H]3C[C@H](O)[C@]12C | -30%
CCCCC1OC(=O)C2=CCCCC21 (stereo not drawn) | -8%
COc1ccc(-c2oc3c(CC=C(C)C)c(O)cc(O)c3c(=O)c2O[C@@H]2O[C@@H](C)[C@H](O)[C@@H](O)[C@H]2O[C@@H]2O[C@@H](C)[C@H](O)[C@@H](O)[C@H]2O)cc1 | -16%
O=C1c2ccccc2C(=O)c2c(O)cccc21 | -30%
CC(=O)N[C@@H](Cc1ccccc1)C(=O)O | -1%
CCCCC(=O)OCC(=O)[C@]1(O)Cc2c(O)c3c(c(O)c2[C@@H](O[C@H]2C[C@H](NC(=O)C(F)(F)F)[C@H](O)[C@H](C)O2)C1)C(=O)c1c(OC)cccc1C3=O | 4%

Repeated from above (sample 2):
SMILES | remaining activity
CN(C)CCCn1cc(C2=C(c3c[nH]c4ccccc34)C(=O)NC2=O)c2ccccc21 | 23.2%
O=C(Nc1ccc(Cl)cc1)c1ccccc1NCc1ccncc1 | 105%
COc1cc2ncc(-c3ccccc3)nc2cc1OC | 97.4%
CC(C)[C@H](CO)Nc1nc(Nc2cccc(Cl)c2)c2ncn(C(C)C)c2n1 | 95.1%
COc1cc2ncnc(Nc3ccc(OCc4ccccc4)cc3)c2cc1OC | 95%
Cc1nc(Nc2ncc(C(=O)Nc3c(C)cccc3Cl)s2)cc(N2CCN(CCO)CC2)n1 | 92.3%
Nc1[nH]nc2nnc(-c3c(-c4ccccc4)nn4ccccc34)cc12 | 98.3%
